Published values pooled from the literature.
Each line is one published result; not all experiments were run side by side.

`N=C(N)NCCC[C@H](NC(=O)[C@H](Cc1c[nH]c2ccccc12)NC(=O)[C@H](CCCNC(=N)N)NC(=O)[C@H](Cc1c[nH]c2ccccc12)NC(=O)[C@H](Cc1c[nH]c2ccccc12)NC(=O)[C@H](Cc1c[nH]c2ccccc12)NC(=O)[C@H](CCCNC(=N)N)NC(=O)[C@H](Cc1c[nH]c2ccccc12)NC(=O)[C@@H](N)CCCNC(=N)N)C(N)=O` gave an MIC of 8 µM (Candida albicans; CGMCC 2.209; no added salts).
For `CC1(C)SC2C(NC(=O)C(NC(=O)C3=C(O)CNC3=O)c3ccccc3)C(=O)N2C1C(=O)O` (centres unmarked), the MIC was 25 µg/mL (Escherichia coli; broth microdilution; Keio mutant JW5195-1; 18 h).
`CC(C)C[C@H](NC(=O)[C@H](CCCCN)NC(=O)[C@H](CO)NC(=O)[C@H](CC(C)C)NC(=O)[C@H](CC(C)C)NC(=O)CNC(=O)[C@H](CC(C)C)NC(=O)[C@H](CCCCN)NC(=O)[C@H](CC(C)C)NC(=O)[C@H](CC(C)C)NC(=O)[C@H](CC(C)C)NC(=O)CNC(=O)[C@H](CO)NC(=O)[C@H](Cc1c[nH]c2ccccc12)NC(=O)[C@@H](N)CCCCN)C(N)=O` gave an MIC of > 100 µM (Candida glabrata; broth microdilution; ATCC 2001; 44 h, 37 °C).
With `O=C(NN=Cc1ccc(O)c(Br)c1)c1cccc(Br)c1` the MIC was 0.3 µg/mL (Cryptococcus neoformans; compound alone, with: caspofungin).
The MIC of `CC1(C)SC2C(NC(=O)C(NC(=O)C3=C(O)C(Cc4ccccc4)NC3=O)c3ccccc3)C(=O)N2C1C(=O)O` (centres unmarked) is reported as 12.5 µg/mL (Escherichia coli; broth microdilution; Keio mutant JW2142-1).
With `N=C(N)c1ccc(OCCC(CCOc2ccc(C(=N)N)cc2)c2ccccc2)cc1` (centres unmarked) the MIC was > 200 µg/mL (Escherichia coli; BW25113 mcr-1; compound alone).
The MIC of `CC[C@H](C)[C@H](NC(=O)[C@H](CCCCN)NC(=O)[C@@H](NC(=O)[C@H](Cc1ccc(O)cc1)NC(=O)[C@H](CCCCN)NC(=O)[C@H](CCCCN)NC(=O)CNC(=O)[C@H](CCCCN)NC(=O)[C@@H](NC(=O)[C@H](C)NC(=O)[C@H](CC(C)C)NC(=O)[C@H](Cc1c[nH]c2ccccc12)NC(=O)CNC(=O)[C@@H](NC(=O)[C@H](Cc1ccccc1)NC(=O)[C@H](CCCCN)NC(=O)[C@H](CC(C)C)NC(=O)[C@H](Cc1ccccc1)NC(=O)[C@H](C)NC(=O)CNC(=O)[C@@H](N)CCSC)C(C)C)[C@@H](C)O)C(C)C)C(=O)N[C@@H](C)C(=O)N[C@@H](Cc1c[nH]c2ccccc12)C(=O)N[C@@H](CC(=O)O)C(=O)N[C@@H](Cc1c[nH]cn1)C(=O)N[C@@H](CCCCN)C(=O)NCC(=O)N[C@H](C(=O)N[C@H](C(=O)N[C@@H](CCSC)C(=O)N[C@@H](CCCCN)C(=O)N[C@@H](Cc1c[nH]c2ccccc12)C(=O)N[C@@H](CC(C)C)C(=O)N[C@@H](CC(N)=O)C(=O)N[C@@H](C)C(=O)NCC(=O)N[C@@H](CCC(N)=O)C(=O)N[C@H](C(=O)N[C@@H](Cc1ccccc1)C(=O)N[C@H](C(=O)N[C@@H](Cc1c[nH]c2ccccc12)C(=O)N[C@H](C(=O)N[C@@H](Cc1ccc(O)cc1)C(=O)N[C@@H](CCC(=O)O)C(=O)N[C@@H](CCC(N)=O)C(=O)N[C@H](C(=O)N[C@@H](CCCCN)C(=O)N[C@@H](CCCCN)C(=O)N[C@@H](CC(C)C)C(=O)N[C@@H](Cc1c[nH]c2ccccc12)C(=O)N[C@H](C(=O)O)[C@@H](C)O)[C@@H](C)CC)C(C)C)[C@@H](C)O)[C@@H](C)O)[C@@H](C)CC)[C@@H](C)O` is reported as 3.9 µg/mL (Trueperella pyogenes; broth microdilution; 37 °C).
For `CC1(C)SC2C(NC(=O)C(NC(=O)C3=C(O)C(Cc4ccsc4)NC3=O)c3ccccc3)C(=O)N2C1C(=O)O` (centres unmarked), the MIC was 25 µg/mL (Escherichia coli; broth microdilution; Keio mutant JW5086-3; 18 h, ferrienterobactin permease gene).
With `N=C(N)c1ccc(OCc2cc(Br)cc(COc3ccc(C(=N)N)cc3)c2)cc1` the MIC was > 50 µg/mL (Escherichia coli; BW25113 mcr-1; compound alone).
`CCCCCCCCCCCCCCNC(=O)CP(=O)(O)O` has an MIC of 200 µg/mL (Streptococcus pneumoniae).
`CC(C)[C@H](NC(=O)[C@H](CCCNC(=N)N)NC(=O)[C@H](Cc1c[nH]c2ccccc12)NC(=O)[C@H](CCCNC(=N)N)NC(=O)[C@H](Cc1c[nH]c2ccccc12)NC(=O)[C@H](Cc1c[nH]c2ccccc12)NC(=O)[C@H](Cc1c[nH]c2ccccc12)NC(=O)[C@H](CCCNC(=N)N)NC(=O)[C@H](Cc1c[nH]c2ccccc12)NC(=O)[C@H](CCCNC(=N)N)NC(=O)CN)C(N)=O` has an MIC of 8 µM (Candida albicans; broth microdilution; 58288, RPMI 1640-MOPS; 48 h, 30 °C).
The MIC of `CC1(C)S[C@@H]2[C@H](NC(=O)[C@H](N)c3ccccc3)C(=O)N2[C@H]1C(=O)O` is reported as 6.25 µg/mL (Escherichia coli; broth microdilution; Keio mutant JW2142-1).
With `CC(C)C[C@H](NC(=O)[C@@H](NC(=O)[C@H](CCCNC(=N)N)NC(=O)[C@H](CCC(N)=O)NC(=O)[C@H](Cc1ccccc1)NC(=O)[C@H](Cc1ccc(O)cc1)NC(=O)[C@H](CC(N)=O)NC(=O)[C@H](Cc1c[nH]c2ccccc12)NC(=O)[C@@H](NC(=O)[C@H](CCCNC(=N)N)NC(=O)[C@H](CCCCN)NC(=O)[C@@H](N)Cc1ccccc1)C(C)C)C(C)C)C(=O)N[C@H](C(=O)N[C@@H](CCCCN)C(=O)N[C@@H](CCCCN)C(=O)N[C@@H](Cc1ccc(O)cc1)C(=O)N[C@@H](C)C(N)=O)C(C)C` the MIC was 6.3 µM (Salmonella typhimurium; broth dilution; SL1344).
`CC1(C)SC2C(NC(=O)C(NC(=O)C3=C(O)C(Cc4ccc([N+](=O)[O-])cc4)NC3=O)c3ccccc3)C(=O)N2C1C(=O)O` (centres unmarked) gave an MIC of 50 µg/mL (Escherichia coli; broth microdilution; Keio mutant JW2142-1).
The MIC of `N=C(N)NCCC[C@H](NC(=O)CN)C(=O)N[C@@H](Cc1c[nH]c2ccccc12)C(=O)N[C@@H](CCCNC(=N)N)C(=O)N[C@@H](Cc1c[nH]c2ccccc12)C(=O)N[C@@H](Cc1c[nH]c2ccccc12)C(=O)N[C@@H](Cc1c[nH]c2ccccc12)C(=O)N[C@@H](CCCNC(=N)N)C(=O)N[C@@H](Cc1c[nH]c2ccccc12)C(=O)N[C@@H](CCCNC(=N)N)C(=O)N[C@@H](Cc1c[nH]c2ccccc12)C(N)=O` is reported as 4 µM (Candida albicans; broth microdilution; CGMCC 2.209, RPMI 1640-MOPS; 48 h, 30 °C).
The MIC of `CCCCCCCCCCCCCCCC(=O)NS(=O)(=O)OCC` is reported as 12.5 µg/mL (Streptococcus pneumoniae).
For `CN[C@H](CC(C)C)C(=O)N[C@H]1C(=O)N[C@@H](CC(N)=O)C(=O)N[C@H]2C(=O)N[C@H]3C(=O)N[C@H](C(=O)N[C@H](C(=O)O)c4cc(O)cc(O)c4-c4cc3ccc4O)[C@H](O)c3ccc(c(Cl)c3)Oc3cc2cc(c3O[C@@H]2O[C@H](CO)[C@@H](O)[C@H](O)[C@H]2O[C@H]2C[C@](C)(N)[C@H](O)[C@H](C)O2)Oc2ccc(cc2Cl)[C@H]1O`, the MIC was 1 µg/mL (Clostridioides difficile; agar dilution anaerobic; ATCC 4381; 48 h).
The MIC of `CC(C)C[C@H](NC(=O)[C@@H](NC(=O)[C@H](CCCNC(=N)N)NC(=O)[C@H](CCC(N)=O)NC(=O)[C@H](Cc1ccccc1)NC(=O)[C@H](Cc1ccc(O)cc1)NC(=O)[C@H](CC(N)=O)NC(=O)[C@H](Cc1c[nH]c2ccccc12)NC(=O)[C@@H](NC(=O)[C@H](CCCNC(=N)N)NC(=O)[C@H](CCCCN)NC(=O)[C@@H](N)Cc1ccccc1)C(C)C)C(C)C)C(=O)N[C@H](C(=O)N[C@@H](CCCCN)C(=O)N[C@@H](CCCCN)C(N)=O)C(C)C` is reported as 25 µM (Salmonella typhimurium; broth dilution; SL1344).
`O=C(CCCCC1CCCCC1)CP(=O)(O)O` gave an MIC of > 200 µg/mL (Streptococcus pneumoniae).
The MIC of `CC1(C)SC2C(NC(=O)C(NC(=O)C3=C(O)C(Cc4ccco4)NC3=O)c3ccccc3)C(=O)N2C1C(=O)O` (centres unmarked) is reported as 6.25 µg/mL (Escherichia coli; broth microdilution; Keio mutant JW5195-1; 18 h).
The MIC of `C[C@@H]1[C@H](O)[C@@H](C)/C=C/C=C/C=C/C=C/C=C/C=C/C=C/[C@H](O[C@@H]2O[C@H](C)[C@@H](O)[C@H](N)[C@@H]2O)C[C@@H]2O[C@](O)(C[C@@H](O)C[C@@H](O)[C@H](O)CC[C@@H](O)C[C@@H](O)CC(=O)O[C@H]1C)C[C@H](O)[C@H]2C(=O)O` is reported as 0.5 µM (Candida albicans; broth microdilution; 56214, RPMI 1640-MOPS; 48 h, 30 °C).
For `CC(C)(C)OCC1NC(=O)C(C(=O)NC(C(=O)NC2C(=O)N3C2SC(C)(C)C3C(=O)O)c2ccccc2)=C1O` (centres unmarked), the MIC was 25 µg/mL (Escherichia coli; broth microdilution; Keio mutant JW5086-3; 18 h, ferrienterobactin permease gene).
`OC(Cn1cncn1)(Cn1cncn1)c1ccc(F)cc1F` gave an MIC of 8 µM (Candida albicans; broth microdilution; CGMCC 2.209, RPMI 1640-MOPS; 48 h, 30 °C).
With `O=C(CCCCc1ccccc1)CP(=O)(O)O` the MIC was > 200 µg/mL (Streptococcus pneumoniae).
For `CC[C@H](C)[C@H](NC(=O)CN)C(=O)NCC(=O)N[C@@H](C)C(=O)N[C@H](C(=O)N[C@@H](CC(C)C)C(=O)N[C@@H](CCCCN)C(=O)N[C@H](C(=O)N[C@@H](CC(C)C)C(=O)N[C@H](C(=O)N[C@H](C(=O)NCC(=O)N[C@@H](CC(C)C)C(=O)N1CCC[C@H]1C(=O)N[C@@H](C)C(=O)N[C@@H](CC(C)C)C(=O)N[C@H](C(=O)N[C@@H](CO)C(=O)N[C@@H](Cc1c[nH]c2ccccc12)C(=O)N[C@H](C(=O)N[C@@H](CCCCN)C(=O)N[C@@H](CCCNC(=N)N)C(=O)N[C@@H](CCCCN)C(=O)N[C@@H](CCCNC(=N)N)C(=O)N[C@@H](CCC(N)=O)C(=O)N[C@@H](CCC(N)=O)C(N)=O)[C@@H](C)CC)[C@@H](C)CC)[C@@H](C)O)[C@@H](C)O)C(C)C)C(C)C`, the MIC was 4 µM (Candida albicans; broth microdilution; 58288, RPMI 1640-MOPS; 48 h, 30 °C).
`CCN1CCN(C(=O)N[C@@H](C(=O)N[C@@H]2C(=O)N3[C@@H]2SC(C)(C)[C@@H]3C(=O)O)c2ccccc2)C(=O)C1=O` has an MIC of 3.12 µg/mL (Escherichia coli; broth microdilution; Keio mutant JW5086-3; 18 h, ferrienterobactin permease gene).

Excerpt of the above:
With `N=C(N)c1ccc(OCCC(CCOc2ccc(C(=N)N)cc2)c2ccccc2)cc1` (centres unmarked) the MIC was > 200 µg/mL (Escherichia coli; BW25113 mcr-1; compound alone).
The MIC of `CC[C@H](C)[C@H](NC(=O)[C@H](CCCCN)NC(=O)[C@@H](NC(=O)[C@H](Cc1ccc(O)cc1)NC(=O)[C@H](CCCCN)NC(=O)[C@H](CCCCN)NC(=O)CNC(=O)[C@H](CCCCN)NC(=O)[C@@H](NC(=O)[C@H](C)NC(=O)[C@H](CC(C)C)NC(=O)[C@H](Cc1c[nH]c2ccccc12)NC(=O)CNC(=O)[C@@H](NC(=O)[C@H](Cc1ccccc1)NC(=O)[C@H](CCCCN)NC(=O)[C@H](CC(C)C)NC(=O)[C@H](Cc1ccccc1)NC(=O)[C@H](C)NC(=O)CNC(=O)[C@@H](N)CCSC)C(C)C)[C@@H](C)O)C(C)C)C(=O)N[C@@H](C)C(=O)N[C@@H](Cc1c[nH]c2ccccc12)C(=O)N[C@@H](CC(=O)O)C(=O)N[C@@H](Cc1c[nH]cn1)C(=O)N[C@@H](CCCCN)C(=O)NCC(=O)N[C@H](C(=O)N[C@H](C(=O)N[C@@H](CCSC)C(=O)N[C@@H](CCCCN)C(=O)N[C@@H](Cc1c[nH]c2ccccc12)C(=O)N[C@@H](CC(C)C)C(=O)N[C@@H](CC(N)=O)C(=O)N[C@@H](C)C(=O)NCC(=O)N[C@@H](CCC(N)=O)C(=O)N[C@H](C(=O)N[C@@H](Cc1ccccc1)C(=O)N[C@H](C(=O)N[C@@H](Cc1c[nH]c2ccccc12)C(=O)N[C@H](C(=O)N[C@@H](Cc1ccc(O)cc1)C(=O)N[C@@H](CCC(=O)O)C(=O)N[C@@H](CCC(N)=O)C(=O)N[C@H](C(=O)N[C@@H](CCCCN)C(=O)N[C@@H](CCCCN)C(=O)N[C@@H](CC(C)C)C(=O)N[C@@H](Cc1c[nH]c2ccccc12)C(=O)N[C@H](C(=O)O)[C@@H](C)O)[C@@H](C)CC)C(C)C)[C@@H](C)O)[C@@H](C)O)[C@@H](C)CC)[C@@H](C)O` is reported as 3.9 µg/mL (Trueperella pyogenes; broth microdilution; 37 °C).
For `CC1(C)SC2C(NC(=O)C(NC(=O)C3=C(O)C(Cc4ccsc4)NC3=O)c3ccccc3)C(=O)N2C1C(=O)O` (centres unmarked), the MIC was 25 µg/mL (Escherichia coli; broth microdilution; Keio mutant JW5086-3; 18 h, ferrienterobactin permease gene).
With `N=C(N)c1ccc(OCc2cc(Br)cc(COc3ccc(C(=N)N)cc3)c2)cc1` the MIC was > 50 µg/mL (Escherichia coli; BW25113 mcr-1; compound alone).
